# Results from different studies.
# Lines come from different studies, so protocols differ. ± gives the spread as reported.
Molecule,cell line,assay,setting,IC50
COc1cc(C(=O)c2sc3c(C)cccc3c2NC(=O)CBr)cc(OC)c1OC,L1210,cell growth or viability,24 h,0.25 µM
Cc1ccc(-c2c3n(c4c(=O)[nH]nc(O)c24)CCn2cccc2-3)cc1,PANC-1,"cell growth or viability, MTT",48 h,48.1 µM
C(=C\c1ccccc1)/c1ccccc1,MOLT-3,"cell growth or viability, ATP luminescence",24 h,180 µM
C=C(Br)C(=O)Nc1c(C(=O)c2cc(OC)c(OC)c(OC)c2)sc2c(C)cccc12,L1210,cell growth or viability,24 h,0.06 µM
C[C@H]1O[C@@H](O[C@H]2CC[C@@]3(C)[C@@H](CC[C@]4(C)[C@@H]3C=C[C@]35OC[C@@]6(CCC(C)(C)C[C@H]63)[C@@H](O)C[C@]54C)[C@]2(C)CO)[C@H](O)[C@@H](O[C@@H]2O[C@H](CO)[C@@H](O)[C@H](O)[C@H]2O)[C@H]1O,L02,cell growth or viability,24 h,11.1 µM
FC(F)(F)Oc1ccc(-c2cc3ccccc3[nH]2)cc1,HEK293 NF-κB luciferase reporter,"reporter gene, refers to: NF-κB","6 h, together with: TNFα",6.5 ± 0.1 µM
CC(=O)O[C@H]1C(=O)[C@@]2(C)[C@H]([C@H](OC(=O)c3ccccc3)[C@]3(O)C[C@H](OC(=O)[C@H](O)[C@@H](NC(=O)c4ccccc4)c4ccccc4)C(C)=C1C3(C)C)[C@]1(OC(C)=O)CO[C@@H]1C[C@@H]2O,HCT-8,"cell growth or viability, CCK-8",72 h,4.6 µM
COc1cc(C(=O)c2sc3c(C)cccc3c2NC(=O)CO[N+](=O)[O-])cc(OC)c1OC,L1210,cell growth or viability,24 h,0.055 µM
O=C1Nc2ccccc2/C1=N\NC(=O)c1ccccc1O,PANC-1,cell growth or viability,72 h,> 10 µM
COc1cc(C(=O)c2oc3ccccc3c2NC(=O)CCl)cc(OC)c1OC,L1210,cell growth or viability,24 h,51.8 µM
COC(=O)c1c(-c2ccc(C)cc2)c2n(c1C(=O)OC)CCn1cccc1-2,PANC-1,"cell growth or viability, MTT",48 h,70.4 µM
CCN(CC)CCCC(C)Nc1ccnc2cc(Cl)ccc12 (stereo not drawn),WRL68,"cell growth or viability, MTT",72 h,103 µM
CCCC[C@@H](C=O)NC(=O)[C@H](CC(C)C)NC(=O)OCc1ccccc1,primary chicken telencephalic neurons,"Aβ38 secretion, MSD immunoassay",24 h,5 µM
Cc1cc(C(=O)/C(=C\c2ccc(Cl)cc2)c2ccc(Cl)cc2)c(C(=O)N2CCCCC2)c(=O)[nH]1,human primary dermal fibroblasts,"cell proliferation, MTT",72 h,> 10 µM
O=C(/C=C/c1cccc(O)c1)c1ccc(Cl)cc1,WRL68,"cell growth or viability, MTT",72 h,11.4 µM
O=C(/C=C/c1ccc(O)cc1)CC(=O)/C=C/c1ccc(O)cc1,Hs68,"cell growth or viability, MTT",48 h,> 100 µg/mL
O=c1[nH]nc(O)c2c(-c3ccccc3)c3n(c12)CCn1cccc1-3,PANC-1,"cell growth or viability, MTT",48 h,92.5 µM
C=CCc1ccc(O)c(-c2ccc(O)c(CC=C)c2)c1,PANC-1,"cell proliferation, MTS","24 h, together with: temozolomide 250 µM",10 µM
Cc1c(N)nc([C@H](CC(N)=O)NC[C@H](N)C(N)=O)nc1C(=O)N[C@H](C(=O)N[C@H](C)[C@@H](O)[C@H](C)C(=O)N[C@H](C(=O)NCCC1=N[C@@H](c2nc(C(=O)NCCCCN=C(N)N)cs2)CS1)[C@@H](C)O)[C@@H](O[C@@H]1O[C@@H](CO)[C@@H](O)[C@H](O)[C@@H]1O[C@H]1O[C@H](CO)[C@@H](O)[C@H](OC(N)=O)[C@@H]1O)c1cnc[nH]1,HDFn,"cell viability, PrestoBlue",4 days,2.71 µg/mL
O=C1Cc2ccccc2N1,LAPC4,"AR transcriptional activity, antagonist, PSA promoter luciferase",24 h,0.224 µM
COc1ccc(C(O)COc2ccc(-c3csc(-c4ccc(OCC(O)c5ccc(OC)c(OC)c5)cc4)n3)cc2)cc1OC (stereo not drawn),H460 LKB1-proficient,mitochondrial ATP production,,0.232 µM
O=C(N/N=C/c1cc(-c2ccsc2)ccc1O)c1ccccc1O,PANC-1,cell growth or viability,72 h,2.32 µM
COc1ccccc1-c1nccc(COc2ccccc2C[C@@H](Nc2ccnc3sc(-c4ccc(F)cc4)c(-c4ccc(OCCN5CCN(C)CC5)c(Cl)c4C)c23)C(=O)O)n1,NCI-H929,"cell viability, MTT","48 h, 10% CFS",0.011 µM
CNC(=O)c1cc(Oc2ccc(NC(=O)Nc3ccc(Cl)c(C(F)(F)F)c3)cc2)ccn1,HepG2 2.2.15 with DHFR overexpression,"cell viability, MTT",,> 3 µM
Nc1ccc(/C=C/C(=O)N2CCc3c(oc4c(-c5ccc(F)cc5)cc(-c5ccc(C(=O)N6C[C@@H]7[C@H](C6)C7(F)F)nn5)cc34)C2)cn1,U2OS,"cell growth or viability, CCK-8",72 h,0.39 to 1.08 µM
COc1ccc(C[C@H]2COC(=O)[C@@H]2Cc2ccc(OCCCCCC(=O)NO)c(OC)c2)cc1OC,CCRF-CEM,"cell growth or viability, CCK-8",48 h,1.57 µM
O=c1[nH]nc(O)c2c(-c3ccc([N+](=O)[O-])cc3)c3n(c12)CCn1cccc1-3,PANC-1,"cell growth or viability, MTT",48 h,46.4 µM
C=CC(C)(C)c1cc(C(=O)c2c(-c3cc(-c4cc5cc(C(C)(C)C=C)c(O)cc5oc4=O)c(O)cc3O)oc3cc(O)ccc23)c(O)cc1O,Hepa1c1c7,cell growth,,9.2 µM
CO[C@@]12[C@H](COC(N)=O)C3=C(C(=O)C(C)=C(N)C3=O)N1C[C@@H]1N[C@@H]12,HCT-15/ADM2-2,"cell growth, XTT",72 h,0.901 µg/mL
COC(=O)c1c(-c2ccc(OC)cc2)c2n(c1C(=O)OC)CCn1cccc1-2,PANC-1,"cell growth or viability, MTT",48 h,65.3 µM
COc1cc2oc3cc(O)c(OC)c(CC=C(C)C)c3c(=O)c2c(O)c1CC=C(C)C,H1L6.1c3,"cell viability, MTT",,> 100 µM
COc1ccc(-c2cc3ccccc3[nH]2)cc1,HEK293 NF-κB luciferase reporter,"reporter gene, refers to: NF-κB","6 h, together with: TNFα",1.4 ± 0.1 µM
NC1=NN(c2ccc(Oc3ccccc3)c(S(=O)(=O)O)c2)C(=O)C1,AP-1-luc HEK293,"AP-1 luciferase reporter, inhibitor","24 h, together with: serum 20%",~0.2 µM
CNC(=O)c1c(-c2cccc(N3CCN(c4ccc(NS(=O)(=O)c5ccc(N[C@H](CCN(C)C)CSc6ccccc6)c([N+](=O)[O-])c5)cc4)CC3)c2)c(-c2ccc(Cl)cc2)n(C)c1C,NCI-H146,cell growth or viability,96 h,0.036 µM
Cc1cc(C2CCCCC2)n(O)c(=O)c1,NIH3T3,resazurin,250 cells per well,5.98 ± 1 µM
COc1ccc(OC)c(/C=C2\CC/C(=C\c3ccc(O)c(OC)c3)C2=O)c1,MGC-803,"cell growth or viability, MTT",72 h,13.3 µM
COc1cc2ncnc(Nc3ccc(OCc4ccccc4)cc3)c2cc1OC,LAPC4,"AR transcriptional activity, antagonist, PSA promoter luciferase",24 h,2.43 µM
navitoclax,MOLT-4,"cell viability, MTS",48 h,0.227 µM
C[C@H](Nc1ccc2c(c1)OCCn1cc(N3C(=O)OC[C@H]3C(F)F)nc1-2)C(N)=O,SK-OV-3,"Akt phosphorylation, inhibitor, in-cell western, refers to: Akt pSer473",1 h,0.01 µM
C=CCc1ccc(OCc2nn(CN3CCOCC3)c(=S)o2)c(OC)c1,SK-OV-3,"cell growth or viability, MTT",72 h,1.84 µM
COc1cc(O)c(CC=C(C)C)c(O)c1C(=O)/C=C/c1ccc(O)cc1,LAPC4,"AR transcriptional activity, antagonist, PSA promoter luciferase",24 h,0.276 µM
Cc1c2c(cc3c(-c4ccccc4)cc(=O)oc13)C(=O)CC1(CCNCC1)O2,NIH3T3,hyaluronan secretion,72 h,1.69 ± 0.75 µM

# Some of these lines once more:
Molecule,cell line,assay,setting,IC50
O=c1[nH]nc(O)c2c(-c3ccc([N+](=O)[O-])cc3)c3n(c12)CCn1cccc1-3,PANC-1,"cell growth or viability, MTT",48 h,46.4 µM
Cc1c(N)nc([C@H](CC(N)=O)NC[C@H](N)C(N)=O)nc1C(=O)N[C@H](C(=O)N[C@H](C)[C@@H](O)[C@H](C)C(=O)N[C@H](C(=O)NCCC1=N[C@@H](c2nc(C(=O)NCCCCN=C(N)N)cs2)CS1)[C@@H](C)O)[C@@H](O[C@@H]1O[C@@H](CO)[C@@H](O)[C@H](O)[C@@H]1O[C@H]1O[C@H](CO)[C@@H](O)[C@H](OC(N)=O)[C@@H]1O)c1cnc[nH]1,HDFn,"cell viability, PrestoBlue",4 days,2.71 µg/mL
COc1cc2ncnc(Nc3ccc(OCc4ccccc4)cc3)c2cc1OC,LAPC4,"AR transcriptional activity, antagonist, PSA promoter luciferase",24 h,2.43 µM
Cc1ccc(-c2c3n(c4c(=O)[nH]nc(O)c24)CCn2cccc2-3)cc1,PANC-1,"cell growth or viability, MTT",48 h,48.1 µM
COc1cc(C(=O)c2sc3c(C)cccc3c2NC(=O)CBr)cc(OC)c1OC,L1210,cell growth or viability,24 h,0.25 µM
C=CCc1ccc(O)c(-c2ccc(O)c(CC=C)c2)c1,PANC-1,"cell proliferation, MTS","24 h, together with: temozolomide 250 µM",10 µM
